{"data": "Published values gathered from unrelated publications", "note": "Compare with care: the assays were run in different laboratories. ± gives the spread as reported."}
{"SMILES": "CC[C@H](C)[C@H](NC(=O)[C@H](CC(=O)O)NC(=O)[C@H](CO)NC(=O)[C@H](CCC(N)=O)NC(=O)[C@H](C)NC(=O)[C@H](CC(=O)O)NC(=O)[C@H](CCC(=O)O)NC(=O)[C@H](Cc1c[nH]cn1)NC(=O)[C@H](Cc1ccc(O)cc1)NC(=O)[C@H](C)NC(=O)[C@H](CC(=O)O)NC(=O)[C@H](CCC(=O)O)NC(=O)[C@H](Cc1c[nH]cn1)NC(=O)[C@H](Cc1ccc(O)cc1)NC(=O)[C@H](C)NC(=O)[C@H](CC(=O)O)NC(=O)[C@H](CCC(=O)O)NC(=O)[C@H](Cc1c[nH]cn1)NC(=O)[C@H](Cc1ccc(O)cc1)NC(=O)[C@H](C)NC(=O)[C@H](CC(=O)O)NC(=O)[C@H](CCC(=O)O)NC(=O)[C@H](Cc1c[nH]cn1)NC(=O)[C@H](Cc1ccc(O)cc1)NC(=O)[C@H](C)NC(=O)[C@H](CC(=O)O)NC(=O)[C@H](CCC(=O)O)NC(=O)[C@H](Cc1c[nH]cn1)NC(=O)[C@@H](N)Cc1ccc(O)cc1)C(=O)N[C@H](C(=O)N[C@@H](C)C(=O)N[C@@H](Cc1c[nH]cn1)C(=O)N[C@@H](CC(C)C)C(=O)N[C@@H](CC(C)C)C(=O)O)C(C)C", "test system": "normal mouse", "setting": "dose not given", "endpoint": "haematocrit", "value": "36.7 ± 2.5%"}
{"SMILES": "COc1cc(NC(=O)C(=O)c2c(C)n(Cc3ccc(Cl)cc3)c3ccc(C)cc23)ccn1", "test system": "cynomolgus monkey, plasma", "setting": "intravenous, 1 mg/kg", "endpoint": "Vd", "value": "6.45 L/kg"}
{"SMILES": "CC(C)C[C@H](NC(=O)[C@H](Cc1ccccc1)NC(=O)CNC(=O)C/C=C(\\F)[C@@H](N)Cc1ccc(O)cc1)C(=O)O", "test system": "BALB/c mouse, plasma", "endpoint": "t1/2", "value": "22 min"}
{"SMILES": "O=C1Nc2ccccc2/C1=N\\Nc1nnc2n1N=C(c1ccc(Cl)cc1)CS2", "test system": "chick embryo, chorioallantoic membrane", "setting": "40 µM", "endpoint": "toxicity", "value": "toxic"}
{"SMILES": "CSCC[C@H](NC(=O)CNC(=O)[C@H](CC(=O)O)NC(=O)[C@@H](NC(=O)[C@@H](NC(=O)[C@@H](NC(=O)CNC(=O)[C@H](CCC(N)=O)NC(=O)[C@H](CCSC)NC(=O)[C@H](CC(=O)O)NC(=O)[C@H](C)NC(=O)[C@H](C)NC(=O)[C@@H](NC(=O)[C@H](CO)NC(=O)[C@@H](N)CC(C)C)[C@@H](C)O)C(C)C)C(C)C)[C@@H](C)O)C(=O)N[C@@H](C)C(=O)N[C@@H](CO)C(=O)NCC(=O)N[C@@H](CC(C)C)C(=O)N[C@@H](CC(=O)O)C(=O)N[C@@H](CCCCN)C(=O)N[C@@H](CC(=O)O)C(=O)N[C@@H](Cc1ccc(O)cc1)C(=O)N[C@@H](CC(C)C)C(=O)N[C@@H](CCCCN)C(=O)N1CCC[C@H]1C(=O)N[C@@H](CC(=O)O)C(=O)N[C@@H](CC(=O)O)C(=O)O", "test system": "human, serum", "setting": "intravenous, 4.16 mg/kg, patients, infusion", "endpoint": "clearance", "value": "18.7 mL/min/kg"}
{"SMILES": "C1=C(c2cc3c(Nc4ccc5scnc5c4)ncnc3s2)CCNC1", "test system": "BALB/c mouse, plasma", "setting": "oral, 10 mg/kg, 2 h", "endpoint": "concentration", "value": "433 ng/mL"}
{"SMILES": "N=C(N)NCc1ccc(C(=O)NCCCC[C@H](NC(=O)N[C@@H](CCC(=O)O)C(=O)O)C(=O)O)cc1[211At]", "test system": "SCID mouse, PC-3 xenografts, lungs", "setting": "14 h", "endpoint": "tissue uptake", "value": "1.02 ± 0.27 %ID/g"}
{"SMILES": "CC(C)C[C@H](NC(=O)[C@H](CCCCN)NC(=O)[C@H](CCC(=O)O)NC(=O)[C@H](C)NC(=O)[C@@H](NC(=O)[C@H](CCCCN)NC(=O)[C@H](CC(=O)O)NC(=O)[C@H](Cc1ccc(O)cc1)NC(=O)[C@H](Cc1ccccc1)NC(=O)[C@H](C)NC(=O)[C@H](CCCCN)NC(=O)[C@H](CC(C)C)NC(=O)[C@H](Cc1c[nH]c2ccccc12)NC(=O)[C@@H](N)CC(=O)O)C(C)C)C(=O)N[C@@H](CCCCN)C(=O)N[C@@H](CCC(=O)O)C(=O)N[C@@H](C)C(=O)N[C@@H](Cc1ccccc1)C(=O)N1CCC[C@H]1C(=O)N[C@@H](CC(=O)O)C(=O)N[C@@H](Cc1c[nH]c2ccccc12)C(=O)N[C@@H](C)C(=O)N[C@@H](CCCCN)C(=O)N[C@@H](C)C(=O)N[C@@H](C)C(=O)N[C@@H](Cc1ccc(O)cc1)C(=O)N[C@@H](CC(=O)O)C(=O)N[C@@H](CCCCN)C(=O)N[C@@H](C)C(=O)N[C@@H](C)C(=O)N[C@@H](CCC(=O)O)C(=O)N[C@@H](CCCCN)C(=O)N[C@@H](C)C(=O)N[C@@H](CCCCN)C(=O)N[C@@H](CCC(=O)O)C(=O)N[C@@H](C)C(=O)N[C@@H](C)C(=O)O", "test system": "cynomolgus monkey male, plasma", "setting": "intravenous infusion, 25 mg/kg, day 1, 30 min infusion", "endpoint": "Tmax", "value": "0 min"}
{"SMILES": "CCN(CC)c1ccc2c(-c3ccccc3C(=O)OCCOCC[18F])c3ccc(=[N+](CC)CC)cc-3oc2c1", "assay": "microPET", "test system": "rat, heart", "setting": "dose not given, 5 min post injection", "endpoint": "radioactivity concentration", "value": "69 ± 5 kBq/cm³"}
{"SMILES": "CCCCCCCCCCCCCCC(=O)O.O=C1CCCC2C3CCCN4CCCC(CN12)C34 (stereo not drawn)", "assay": "shake-flask", "test system": "simulated gastric fluid", "setting": "pH 1.2, 37 °C", "endpoint": "log octanol-water partition coefficient", "value": -1.12}
{"SMILES": "CC[C@H](C)[C@@H]1NC(=O)[C@H](CCCCN)NC(=O)[C@H](CCCCN)NC(=O)[C@H](Cc2ccc(O)cc2)NC(=O)[C@H](CC(C)C)NC(=O)[C@@H]2CCCN2C(=O)[C@H](C)NC(=O)CNC(=O)CNC(=O)[C@H](CO)NC(=O)CNC(=O)CNC(=O)[C@H](CCCNC(=N)N)NC(=O)[C@H](CCC(=O)O)NC(=O)[C@H](CC(C)C)NC(=O)[C@H](Cc2c[nH]cn2)NC(=O)[C@H](CCCCN)NC(=O)[C@H](CCCCN)NC(=O)[C@H]([C@@H](C)CC)NC(=O)[C@H]([C@@H](C)CC)NC(=O)[C@H](CCCCN)NC(=O)[C@H](CCCCN)NC(=O)[C@H](Cc2ccc(O)cc2)NC(=O)[C@H](CC(C)C)NC(=O)[C@@H]2CCCN2C(=O)CNC(=O)CNC(=O)[C@@H](NC(=O)CN)CSSC[C@@H](C(N)=O)NC(=O)[C@H](Cc2c[nH]cn2)NC(=O)[C@H](CCCCN)NC(=O)[C@H](CCCCN)NC(=O)[C@H]([C@@H](C)CC)NC1=O", "test system": "25% human serum", "setting": "50 µM, 24 h", "how to read": "relative to: 0 h control", "endpoint": "remaining intact peptide", "value": "0%"}
{"SMILES": "CC[C@H](C)C(=O)N1CCC(NC(=O)Nc2ccc(OC(F)(F)F)c(F)c2)CC1", "test system": "healthy volunteers", "setting": "oral, 0.5 mg single dose, 14 (unit not given)", "endpoint": "subjects with any AE", "value": "33.3%"}
{"SMILES": "O=c1c(-c2cnn(-c3ccccc3)c2)c(C(F)(F)F)oc2c(O)c(O)ccc12", "test system": "BALB/c nude mouse, female", "setting": "intraperitoneal, 7 d", "endpoint": "no adverse effect level", "value": "50 mg/kg"}
{"SMILES": "CN(C)C(CNC(=O)Nc1cc(C(F)(F)F)ccc1N1CCOCC1)c1ccncc1 (stereo not drawn)", "test system": "mouse, serum", "setting": "intraperitoneal, 360 mg/kg single dose", "endpoint": "serum globulin", "value": "1.2 g/dL"}
{"SMILES": "CCCCCCCCCCCCCCCCCC(=O)Nc1ccn(C2OC(CO)C(O)C2(F)F)c(=O)n1 (stereo not drawn)", "test system": "mouse, serum", "setting": "intravenous, 30 mg/kg gemcitabine equivalent, 24 h", "endpoint": "AST activity", "value": "76 ± 18 mU/mL"}
{"SMILES": "CC(=O)[O-].CN1CCCN2CCN(C)CCCN(CC1)CC2.F[P-](F)(F)(F)(F)F.[Co+2]", "assay": "cyclic voltammetry, item: first Co2+/Co3+ couple", "test system": "acetonitrile", "endpoint": "peak separation", "value": "220 mV"}
{"SMILES": "O=C([O][Ti+2][O]C(=O)c1ccc([P+]([Au-][Cl])(c2ccccc2)c2ccccc2)cc1)c1ccc([P+]([Au-][Cl])(c2ccccc2)c2ccccc2)cc1.c1cc[cH-]c1.c1cc[cH-]c1", "test system": "C57BL/6 mice, female", "setting": "subcutaneous, 15 mg/kg/day", "endpoint": "time to death", "value": "< 24 h"}
{"SMILES": "O=C1Cc2cc(CCN3CCN(C4=NS(=O)(=O)c5ccccc54)CC3)c(Cl)cc2N1", "test system": "human liver microsomes", "setting": "1 µM, 30 min, 0.5 mg/mL protein", "endpoint": "percent metabolized", "value": "0%"}
{"SMILES": "CCOP(=O)(OCC)OCCCCOC(=O)CC1=C(C)/C(=C/c2ccc([S+](C)[O-])cc2)c2ccc(F)cc21 (stereo not drawn)", "test system": "rat, blood", "setting": "oral, 50 mg/kg", "endpoint": "Tmax", "value": "30 min"}
{"SMILES": "NC(=O)[C@@H](CCCCNC(=O)CNC(=O)CCC(=O)NCCc1c[nH]cn1)NC(=O)[C@@H](Cc1ccc(O)cc1)NC(=O)[C@@H](CCCCNC(=O)CNC(=O)CCC(=O)NCCc1c[nH]cn1)NC(=O)Cc1ccc(CN2CCN(CC(=O)O)CCN(CC(=O)O)CC2)cc1 [fluorine-18 labelled]", "test system": "tumour-bearing nude mice", "setting": "intravenous, 1 h, TF2 pretargeting", "how to read": "relative to: tumour over bone", "endpoint": "tissue ratio", "value": "120 ± 108"}
{"SMILES": "CN[C@](C)(C[18F])C(=O)O", "test system": "mouse, pancreas", "setting": "30 min, tumour-bearing", "endpoint": "tracer uptake", "value": "54 %ID/g"}
{"note": "Excerpt of the above:"}
{"SMILES": "CC[C@H](C)C(=O)N1CCC(NC(=O)Nc2ccc(OC(F)(F)F)c(F)c2)CC1", "test system": "healthy volunteers", "setting": "oral, 0.5 mg single dose, 14 (unit not given)", "endpoint": "subjects with any AE", "value": "33.3%"}
{"SMILES": "O=c1c(-c2cnn(-c3ccccc3)c2)c(C(F)(F)F)oc2c(O)c(O)ccc12", "test system": "BALB/c nude mouse, female", "setting": "intraperitoneal, 7 d", "endpoint": "no adverse effect level", "value": "50 mg/kg"}
